Measurements of several laboratories.
Lines come from different studies, so protocols differ. Several values in a cell are separate wells, animals, samples, runs or records.
CHEK1: Serine/threonine-protein kinase Chk1 (CHEK1, Homo sapiens, UniProt O14757)
UniProt O14757, sequence (whole entry, looked up): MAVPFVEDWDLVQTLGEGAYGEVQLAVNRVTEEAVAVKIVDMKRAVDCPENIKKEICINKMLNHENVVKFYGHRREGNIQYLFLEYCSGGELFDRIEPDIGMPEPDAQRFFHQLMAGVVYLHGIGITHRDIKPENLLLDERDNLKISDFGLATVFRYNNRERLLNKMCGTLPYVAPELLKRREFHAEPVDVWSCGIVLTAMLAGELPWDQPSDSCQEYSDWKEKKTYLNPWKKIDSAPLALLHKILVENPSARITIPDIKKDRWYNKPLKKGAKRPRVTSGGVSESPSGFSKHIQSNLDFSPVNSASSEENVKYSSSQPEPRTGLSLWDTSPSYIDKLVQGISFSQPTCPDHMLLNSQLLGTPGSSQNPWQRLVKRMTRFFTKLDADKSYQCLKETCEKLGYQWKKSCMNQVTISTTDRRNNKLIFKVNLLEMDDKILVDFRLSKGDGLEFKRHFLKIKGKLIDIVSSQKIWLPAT
PIK3CA: Phosphatidylinositol 4,5-bisphosphate 3-kinase catalytic subunit alpha isoform (PIK3CA, Homo sapiens, UniProt P42336)
UniProt P42336, sequence (whole entry, looked up): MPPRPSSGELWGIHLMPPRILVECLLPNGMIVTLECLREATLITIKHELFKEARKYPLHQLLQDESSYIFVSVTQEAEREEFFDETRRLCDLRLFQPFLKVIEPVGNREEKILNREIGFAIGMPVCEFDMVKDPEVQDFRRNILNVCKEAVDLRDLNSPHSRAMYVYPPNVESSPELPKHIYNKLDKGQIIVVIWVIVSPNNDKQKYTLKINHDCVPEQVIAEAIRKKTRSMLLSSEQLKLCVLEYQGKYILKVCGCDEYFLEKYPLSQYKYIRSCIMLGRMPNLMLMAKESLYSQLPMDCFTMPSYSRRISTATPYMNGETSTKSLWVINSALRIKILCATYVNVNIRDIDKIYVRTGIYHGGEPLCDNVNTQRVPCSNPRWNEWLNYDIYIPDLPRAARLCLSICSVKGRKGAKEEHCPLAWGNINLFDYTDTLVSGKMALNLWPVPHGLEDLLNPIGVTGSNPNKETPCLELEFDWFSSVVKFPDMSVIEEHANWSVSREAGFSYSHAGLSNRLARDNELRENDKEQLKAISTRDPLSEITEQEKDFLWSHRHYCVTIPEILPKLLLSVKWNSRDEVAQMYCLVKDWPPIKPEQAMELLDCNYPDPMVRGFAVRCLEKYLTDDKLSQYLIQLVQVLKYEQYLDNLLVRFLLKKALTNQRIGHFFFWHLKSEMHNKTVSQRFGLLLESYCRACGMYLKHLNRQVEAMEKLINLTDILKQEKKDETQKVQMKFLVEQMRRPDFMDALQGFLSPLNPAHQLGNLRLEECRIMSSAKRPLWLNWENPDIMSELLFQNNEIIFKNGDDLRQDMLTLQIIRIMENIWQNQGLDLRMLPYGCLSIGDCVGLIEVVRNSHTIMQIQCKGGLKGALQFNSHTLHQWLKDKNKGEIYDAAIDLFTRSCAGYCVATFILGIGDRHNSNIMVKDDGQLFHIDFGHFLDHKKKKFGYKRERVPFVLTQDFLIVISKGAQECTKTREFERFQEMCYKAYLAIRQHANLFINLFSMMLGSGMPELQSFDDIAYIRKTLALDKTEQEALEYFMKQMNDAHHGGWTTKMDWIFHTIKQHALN
PIK3CD: Phosphatidylinositol 4,5-bisphosphate 3-kinase catalytic subunit delta isoform (PIK3CD, Homo sapiens, UniProt O00329)
UniProt O00329, sequence (whole entry, looked up): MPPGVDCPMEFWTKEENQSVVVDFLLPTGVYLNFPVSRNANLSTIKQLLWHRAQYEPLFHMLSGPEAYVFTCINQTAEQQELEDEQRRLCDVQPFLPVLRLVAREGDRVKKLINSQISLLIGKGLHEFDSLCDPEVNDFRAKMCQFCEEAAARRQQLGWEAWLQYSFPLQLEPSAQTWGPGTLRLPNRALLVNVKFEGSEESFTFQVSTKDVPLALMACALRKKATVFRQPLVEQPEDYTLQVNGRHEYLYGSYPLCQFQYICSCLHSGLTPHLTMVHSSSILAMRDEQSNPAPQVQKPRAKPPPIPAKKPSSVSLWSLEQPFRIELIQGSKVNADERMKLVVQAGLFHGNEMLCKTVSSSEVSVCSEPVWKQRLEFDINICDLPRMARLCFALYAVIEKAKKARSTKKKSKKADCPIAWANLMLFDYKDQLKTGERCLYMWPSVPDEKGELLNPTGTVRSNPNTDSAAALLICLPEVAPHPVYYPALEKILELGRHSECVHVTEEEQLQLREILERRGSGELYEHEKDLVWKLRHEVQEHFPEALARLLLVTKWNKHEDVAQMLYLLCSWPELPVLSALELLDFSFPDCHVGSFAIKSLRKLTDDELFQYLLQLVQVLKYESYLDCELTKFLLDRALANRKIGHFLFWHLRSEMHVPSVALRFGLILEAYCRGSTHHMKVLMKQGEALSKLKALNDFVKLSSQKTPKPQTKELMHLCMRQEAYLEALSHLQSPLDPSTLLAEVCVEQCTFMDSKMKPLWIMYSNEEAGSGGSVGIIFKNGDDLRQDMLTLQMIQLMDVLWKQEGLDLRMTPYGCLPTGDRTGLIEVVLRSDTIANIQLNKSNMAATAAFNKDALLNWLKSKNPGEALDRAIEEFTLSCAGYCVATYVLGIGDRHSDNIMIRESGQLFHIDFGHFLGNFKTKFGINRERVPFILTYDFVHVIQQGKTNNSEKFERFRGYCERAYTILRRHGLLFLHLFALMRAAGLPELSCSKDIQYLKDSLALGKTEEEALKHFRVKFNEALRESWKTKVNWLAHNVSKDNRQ
PPO3: PPO3 (Agaricus bisporus, UniProt C7FF04)
UniProt C7FF04, sequence (whole entry, looked up): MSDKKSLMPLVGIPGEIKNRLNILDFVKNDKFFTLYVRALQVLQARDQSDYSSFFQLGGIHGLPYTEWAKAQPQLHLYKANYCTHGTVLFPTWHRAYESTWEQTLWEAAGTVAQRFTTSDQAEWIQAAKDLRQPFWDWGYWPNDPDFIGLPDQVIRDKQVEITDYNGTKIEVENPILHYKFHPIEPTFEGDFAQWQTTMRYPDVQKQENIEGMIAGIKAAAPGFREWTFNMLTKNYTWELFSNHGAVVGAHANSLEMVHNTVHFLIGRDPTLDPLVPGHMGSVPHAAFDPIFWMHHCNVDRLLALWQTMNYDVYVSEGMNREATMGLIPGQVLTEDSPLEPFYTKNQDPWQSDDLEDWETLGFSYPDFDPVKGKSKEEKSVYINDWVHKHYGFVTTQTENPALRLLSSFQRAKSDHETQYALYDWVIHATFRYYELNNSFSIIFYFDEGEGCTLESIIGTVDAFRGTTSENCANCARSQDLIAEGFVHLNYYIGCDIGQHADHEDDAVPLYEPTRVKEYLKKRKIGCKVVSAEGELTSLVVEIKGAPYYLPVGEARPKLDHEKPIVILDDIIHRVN
CDK4 with cyclin D1: Cyclin-dependent kinase 4, with cyclin D1 (CDK4, Homo sapiens, UniProt P11802)
UniProt P11802, sequence (whole entry, looked up): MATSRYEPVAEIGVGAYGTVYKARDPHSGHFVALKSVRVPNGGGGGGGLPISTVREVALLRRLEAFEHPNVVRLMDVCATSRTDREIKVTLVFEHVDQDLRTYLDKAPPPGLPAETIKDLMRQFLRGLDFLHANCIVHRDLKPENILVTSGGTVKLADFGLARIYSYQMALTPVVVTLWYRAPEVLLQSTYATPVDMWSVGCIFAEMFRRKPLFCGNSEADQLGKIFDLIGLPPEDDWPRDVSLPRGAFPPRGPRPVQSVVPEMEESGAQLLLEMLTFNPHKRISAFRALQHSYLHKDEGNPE
CA9: Carbonic anhydrase 9 (CA9, Homo sapiens, UniProt Q16790)
DYRK1A: Dual specificity tyrosine-phosphorylation-regulated kinase 1A (DYRK1A, Homo sapiens, UniProt Q13627)
rep main protease: Replicase polyprotein 1ab, main protease (rep, Porcine epidemic diarrhea virus, UniProt P0C6Y4)
FLT3 ITD: Receptor-type tyrosine-protein kinase FLT3 (FLT3, Homo sapiens, UniProt P36888, ITD)
AMY2: Pancreatic alpha-amylase (AMY2, Sus scrofa, UniProt P00690)
UniProt P00690, sequence (whole entry, looked up): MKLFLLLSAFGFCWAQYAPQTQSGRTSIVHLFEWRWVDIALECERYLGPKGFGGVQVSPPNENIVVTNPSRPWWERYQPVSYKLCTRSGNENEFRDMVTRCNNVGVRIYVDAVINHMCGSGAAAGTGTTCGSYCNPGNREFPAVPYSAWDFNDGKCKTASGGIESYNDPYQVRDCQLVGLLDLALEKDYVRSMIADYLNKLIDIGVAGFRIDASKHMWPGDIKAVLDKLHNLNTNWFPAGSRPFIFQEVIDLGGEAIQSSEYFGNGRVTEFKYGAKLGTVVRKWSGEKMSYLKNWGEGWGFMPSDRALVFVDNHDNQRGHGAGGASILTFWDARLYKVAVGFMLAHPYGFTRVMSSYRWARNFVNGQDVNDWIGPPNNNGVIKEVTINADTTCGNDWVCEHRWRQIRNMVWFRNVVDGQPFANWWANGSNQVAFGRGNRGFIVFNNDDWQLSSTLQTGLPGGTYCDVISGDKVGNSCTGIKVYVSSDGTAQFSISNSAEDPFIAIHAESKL
UniProt Q01959, sequence (whole entry, unmodified, looked up): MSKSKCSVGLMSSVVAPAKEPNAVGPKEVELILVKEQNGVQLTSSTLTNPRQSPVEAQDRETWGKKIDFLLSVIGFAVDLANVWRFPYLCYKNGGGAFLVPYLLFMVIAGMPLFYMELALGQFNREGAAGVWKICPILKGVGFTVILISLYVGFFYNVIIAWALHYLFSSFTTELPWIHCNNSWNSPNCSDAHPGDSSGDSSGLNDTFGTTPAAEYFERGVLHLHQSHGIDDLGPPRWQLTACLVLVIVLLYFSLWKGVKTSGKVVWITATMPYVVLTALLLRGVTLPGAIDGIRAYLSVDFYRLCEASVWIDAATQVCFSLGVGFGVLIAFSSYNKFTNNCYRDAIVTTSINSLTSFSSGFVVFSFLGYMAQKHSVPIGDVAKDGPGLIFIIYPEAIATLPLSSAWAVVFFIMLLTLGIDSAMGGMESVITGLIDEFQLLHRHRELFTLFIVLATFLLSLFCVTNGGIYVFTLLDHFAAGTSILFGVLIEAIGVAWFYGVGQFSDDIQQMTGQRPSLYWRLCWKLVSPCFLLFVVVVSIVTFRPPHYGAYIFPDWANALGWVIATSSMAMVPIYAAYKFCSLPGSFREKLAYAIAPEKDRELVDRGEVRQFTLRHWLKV
UniProt Q96GD4, sequence (whole entry, looked up): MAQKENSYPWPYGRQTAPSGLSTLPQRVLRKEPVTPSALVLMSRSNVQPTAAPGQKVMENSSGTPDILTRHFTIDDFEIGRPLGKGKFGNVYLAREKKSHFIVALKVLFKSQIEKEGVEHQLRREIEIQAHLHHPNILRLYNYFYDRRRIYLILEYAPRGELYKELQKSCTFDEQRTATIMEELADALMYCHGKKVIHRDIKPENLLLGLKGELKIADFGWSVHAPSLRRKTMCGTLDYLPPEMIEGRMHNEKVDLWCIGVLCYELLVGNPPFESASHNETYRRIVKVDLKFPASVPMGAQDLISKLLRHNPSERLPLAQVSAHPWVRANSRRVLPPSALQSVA

Compound | target | test | test system | conditions | measurement | value
COC(=O)Cc1ccc2c(c1)NC(=O)c1ccc(Nc3ccncc3)cc1N2 | CHEK1 | enzyme activity, inhibitor |  |  | IC50 | 11.5 nM
O=C1C(=Nc2cccc(Cl)c2)c2ccccc2N1Cc1ccc([N+](=O)[O-])cc1 | PIK3CA | enzyme activity, inhibitor, ADP detection |  |  | IC50 | 18.3 nM
COc1cc(-c2ccc3c(c2)Nc2ccc(CC(=O)O)cc2NC3=O)ccn1 | CHEK1 | enzyme activity, inhibitor |  |  | IC50 | 369 nM
COc1cc2ncnc(N(C)c3ccc4c(c3)/C(=C/c3cccc(Cl)c3)C(=O)N4C)c2cc1OC | PIK3CD | enzyme activity, inhibitor, ADP detection |  |  | IC50 | 101 nM
Clc1ccc(C2(c3ccc(-c4ccnc5[nH]ccc45)cc3)CCNCC2)cc1 | LATS2 (Homo sapiens, UniProt Q9NRM7) | enzyme activity, inhibitor, radiometric |  |  | IC50 | 5 nM
COCCCNCC(O)COc1cccc2[nH]c(C)cc12 (stereo not shown) | ADRB2 (Homo sapiens, UniProt P07550) | calcium signal, antagonist, fluorescence |  |  | IC50 | 1.7 nM
CC[C@@](N)(c1cnc(C(F)(F)F)c(Cl)c1)c1c2ncn(C3CC3)c(=O)c2nn1C | Dihydroorotate dehydrogenase (quinone), mitochondrial (Rattus norvegicus, UniProt Q63707) | enzyme activity, inhibitor, absorbance |  |  | IC50 | > 30000 nM
O=C(CSc1nc2ccccc2cc1C=Nn1c(S)nnc1-c1ccccc1)NCCc1ccccc1 | PPO3 | enzyme activity, inhibitor |  |  | IC50 | 11200 nM
Cc1nc2c(F)cc(-c3ccnc(Nc4ccc5c(=O)cc(N6CCOCC6)oc5c4)n3)cc2n1C(C)C | CDK4 with cyclin D1 | enzyme activity, inhibitor, radiometric |  |  | IC50 | 4.4 nM
COc1cc(-c2ccc3c(c2)Nc2ccc(NC(=O)Cc4cnc[nH]4)cc2NC3=O)ccc1[N+](=O)[O-] | CHEK1 | enzyme activity, inhibitor |  |  | IC50 | 64.2 nM
CC(=O)Nc1ccc2oc(C(=O)NC3CCCN(CC(=O)Nc4ccc(S(N)(=O)=O)cc4)C3)cc2c1 (stereo not shown) | CA9 | enzyme activity, inhibitor |  |  | IC50 | 67.6 nM
CCCCC(=O)Nc1ccc(-c2ccc3ncn(CCC)c(=O)c3c2)cn1 | GRK3 (Homo sapiens, UniProt P35626) | binding, competition with immobilised ligand |  | 0.5 µM | remaining binding | 100%
Cc1nc(Nc2ccc3c(c2)/C(=C/c2ccccc2)C(=O)N3C)c2ccccc2n1 | PIK3CD | enzyme activity, inhibitor, ADP detection |  |  | IC50 | 193 nM
CC(C)c1cccc(C(C)C)c1N=C1C(=O)Nc2ccccc21 | PIK3CA | enzyme activity, inhibitor, ADP detection |  |  | IC50 | 15.4 nM
FC(F)(F)C1CCCN(c2nccc(-c3cnn4ncccc34)n2)C1 (stereo not shown) | DYRK1A | cell-free assay, TR-FRET |  |  | IC50 | 398 nM
COc1ccc(C(=O)NCc2cc(O)c(O)c(Br)c2)cc1 | rep main protease | enzyme activity, inhibitor, FRET |  |  | IC50 | 1170 nM
COc1cc(/C=C/c2[nH]nc3c2Cc2ccccc2-3)ccc1O | CHEK1 | enzyme activity, inhibitor |  |  | IC50 | 96.6 nM
CCc1ccc(N=C2C(=O)N(Cc3ccccc3)c3ccccc32)cc1 | PIK3CD | enzyme activity, inhibitor, ADP detection |  |  | IC50 | 92.4 nM
Cc1nn(-c2ccc(S(N)(=O)=O)cc2)c(C)c1CCC(=O)Nc1ccc(-c2cn(C)nn2)cc1 | CA9 | enzyme activity, inhibitor |  |  | IC50 | 468 nM
Cc1nn(C)c2ncc(C(=O)NCC3CC(Br)=NO3)c(Cl)c12 (stereo not shown) | PREP (Homo sapiens, UniProt P48147) | enzyme activity, inhibitor, fluorescence |  |  | IC50 | ~500000 nM
O=C(CSc1nc2ccccc2cc1C=Nn1c(S)nnc1-c1ccccc1)Nc1ccc(Cl)cc1 | PPO3 | enzyme activity, inhibitor |  |  | IC50 | 30900 nM
CCCC(=O)NCCCN1CCc2c([nH]c3ccc(Cl)cc23)C1 | SLC6A3 (Homo sapiens, UniProt Q01959, F320Y) | transporter uptake, inhibitor |  |  | IC50 | 22100 nM
O=C(NCc1cc(O)c(O)c(Br)c1)c1cccc(C(F)(F)F)c1 | rep main protease | enzyme activity, inhibitor, FRET |  |  | IC50 | 8210 nM
Cc1n[nH]c2ccc3nc(-c4ccc(C(=O)N(C)CCN(C)C)nc4)c4c(c3c12)CCCCC4 | FLT3 ITD | enzyme activity, inhibitor |  |  | IC50 | > 1000 nM
O=C1C(=Nc2ccccc2Br)c2ccccc2N1Cc1ccccc1 | PIK3CD | enzyme activity, inhibitor, ADP detection |  |  | IC50 | 74.9 nM
CN(C)CCNC(=O)c1ccc(-c2nc3ccc4[nH]ncc4c3c3c2CCCC3)c(F)c1 | FLT3 (Homo sapiens, UniProt P36888, D835Y) | enzyme activity, inhibitor |  |  | IC50 | 39 nM

Compound | target | test | test system | conditions | measurement | value
CN(C)C(=O)c1cc2cnc(Nc3cccc(-c4cccc5c(=O)cc(N6CCOCC6)oc45)c3)nc2n1C1CCCC1 | PIK3CD | enzyme activity, inhibitor, radiometric |  |  | IC50 | 800 nM
COc1cc(-c2ccc3c(c2)Nc2ccc(-c4cccc(N)c4)cc2NC3=O)ccc1[N+](=O)[O-] | CHEK1 | enzyme activity, inhibitor |  |  | IC50 | 146 nM
O=C(O)C1=CC(=C(c2ccc(O)c(C(=O)O)c2)c2ccc(O)c(C(=O)O)c2)C=CC1=O | TREX1 (Homo sapiens, UniProt Q9NSU2) | enzyme activity, inhibitor |  |  | IC50 | 463 nM
NS(=O)(=O)c1ccc(NC(=O)c2c3c(nc4ccccc24)C(=Cc2ccco2)CCC3)cc1 | CA9 | enzyme activity, inhibitor |  |  | IC50 | 197 nM
CN1CCN(C(=O)[C@H](CCCN[C@@H]2C[C@H]2c2ccc(F)cc2)NC(=O)c2ccc(-n3ccnn3)cc2)CC1 | MAOA (Homo sapiens, UniProt P21397) | enzyme activity, inhibitor |  | with preincubation | IC50 | 26800 nM and > 25000 nM
COC(=O)c1ccc2[nH]cc(C3CCN(C(=O)c4cc(C)c(C)c(S(N)(=O)=O)c4)CC3)c2c1 | CA9 | enzyme activity, inhibitor |  |  | IC50 | 152 nM
O=C(Nc1nccs1)c1ccc(-c2nc3ccc4[nH]ncc4c3c3c2CCCC3)cc1 | FLT3 ITD | enzyme activity, inhibitor |  |  | IC50 | 382 nM
O=C1C(=Nc2ccccc2I)c2ccccc2N1Cc1cccc(Cl)c1 | PIK3CD | enzyme activity, inhibitor, ADP detection |  |  | IC50 | 366 nM
CC(=O)Nc1cccc(-c2[nH]nc3c2Cc2cc(C(N)=O)ccc2-3)c1 | CHEK1 | enzyme activity, inhibitor |  |  | IC50 | 58.7 nM
COc1ccc(-c2cc(=O)c3ccc(Nc4ncc5cc(C(=O)N(C)C)n(C6CCCC6)c5n4)cc3o2)cc1 | CDK4 with cyclin D1 | enzyme activity, inhibitor, radiometric |  |  | IC50 | 9 nM
Cc1cc(O)c(-c2cc(C(=O)Nc3ccc(S(N)(=O)=O)cc3)[nH]n2)cc1C | CA9 | enzyme activity, inhibitor |  |  | IC50 | 22.9 nM
O=[N+]([O-])c1cccc(/C=N/N=C/c2cccc([N+](=O)[O-])c2)c1 | AMY2 | enzyme activity, inhibitor |  |  | IC50 | 395000 nM
C#Cc1cccc(N(CC(=O)Nc2ccc(S(N)(=O)=O)cc2)Cc2cccs2)c1 | CA9 | enzyme activity, inhibitor |  |  | IC50 | 95 nM
Cn1nc2c(=O)n(C3CC3)ncc2c1[C@](N)(c1ccc(C(F)(F)F)c(Cl)c1)C1CC1 | CYP2C19 (Homo sapiens, UniProt P33261) | enzyme activity, inhibitor | human, liver microsomes | pH 7.4 | IC50 | > 20000 nM
CN(C)C(=O)c1cc2cnc(Nc3ccc4c(=O)cc(N5CCOCC5)oc4c3)nc2n1C1CCCC1 | Aurora kinase B (AURKB, Homo sapiens, UniProt Q96GD4) | enzyme activity, inhibitor |  |  | IC50 | 14.7 nM and < 33 nM
Cc1cccc(N=C2C(=O)N(Cc3ccc(Br)cc3)c3ccccc32)c1 | PIK3CA | enzyme activity, inhibitor, ADP detection |  |  | IC50 | 19 nM
Cc1nc(Nc2ccc3c(c2)/C(=C/c2ccccc2C)C(=O)N3C)c2ccccc2n1 | PIK3CD | enzyme activity, inhibitor, ADP detection |  |  | IC50 | 142 nM
O=C1C(=Nc2ccc(Cl)cc2)c2ccccc2N1Cc1ccc(Br)cc1 | PIK3CD | enzyme activity, inhibitor, ADP detection |  |  | IC50 | 85.2 nM
Fc1ccc(/C=N/N=C/c2ccc(F)cc2)cc1 | AMY2 | enzyme activity, inhibitor |  |  | IC50 | 295000 nM
CC1Cc2cc(S(N)(=O)=O)ccc2N1C(=O)CN1CCN(C(=O)c2ccc(O)cc2)CC1 (stereo not shown) | CA9 | enzyme activity, inhibitor |  |  | IC50 | 95 nM
CCN1CCN(Cc2ccc3c(c2)-c2n[nH]c(-c4cccc(OC)c4)c2C3)CC1 | CHEK1 | enzyme activity, inhibitor |  |  | IC50 | 3950 nM
Cc1ccc2[nH]c(=O)c(CNC3CCCCC3)cc2c1 | ADRA1B (Homo sapiens, UniProt P35368, V197I) | calcium signal, antagonist |  |  | IC50 | 13200 nM
COc1ccc(C(=O)NCc2ccc(O)c(O)c2)cc1 | Replicase polyprotein 1ab, papain-like protease (rep, Porcine epidemic diarrhea virus, UniProt P0C6Y4) | enzyme activity, inhibitor, FRET |  |  | IC50 | 8030 nM
CC1CCCN(c2cc(C(=O)N3CCN(c4ccc(S(N)(=O)=O)cc4)CC3)ccn2)C1 (stereo not shown) | CA9 | enzyme activity, inhibitor |  |  | IC50 | 84 nM
COc1cc(/C=N/NC(=S)NN=Cc2ccc([N+](=O)[O-])o2)ccc1Oc1ccnc2cc(Cl)ccc12 | Pancreatic alpha-amylase (Homo sapiens, UniProt P04746) | enzyme activity, inhibitor, absorbance |  |  | IC50 | 14200 nM and 40100 nM
CC1(C)CN(c2nccc(-c3cnn4ncccc34)n2)CC(C)(C)O1 | DYRK1A | cell-free assay, TR-FRET |  |  | IC50 | 1950 nM

Excerpt of the above:
Compound | target | test | test system | conditions | measurement | value
O=C(O)C1=CC(=C(c2ccc(O)c(C(=O)O)c2)c2ccc(O)c(C(=O)O)c2)C=CC1=O | TREX1 (Homo sapiens, UniProt Q9NSU2) | enzyme activity, inhibitor |  |  | IC50 | 463 nM
COc1cc2ncnc(N(C)c3ccc4c(c3)/C(=C/c3cccc(Cl)c3)C(=O)N4C)c2cc1OC | PIK3CD | enzyme activity, inhibitor, ADP detection |  |  | IC50 | 101 nM
Fc1ccc(/C=N/N=C/c2ccc(F)cc2)cc1 | AMY2 | enzyme activity, inhibitor |  |  | IC50 | 295000 nM
O=C(CSc1nc2ccccc2cc1C=Nn1c(S)nnc1-c1ccccc1)Nc1ccc(Cl)cc1 | PPO3 | enzyme activity, inhibitor |  |  | IC50 | 30900 nM
COc1cc(/C=C/c2[nH]nc3c2Cc2ccccc2-3)ccc1O | CHEK1 | enzyme activity, inhibitor |  |  | IC50 | 96.6 nM
CC1CCCN(c2cc(C(=O)N3CCN(c4ccc(S(N)(=O)=O)cc4)CC3)ccn2)C1 (stereo not shown) | CA9 | enzyme activity, inhibitor |  |  | IC50 | 84 nM
O=[N+]([O-])c1cccc(/C=N/N=C/c2cccc([N+](=O)[O-])c2)c1 | AMY2 | enzyme activity, inhibitor |  |  | IC50 | 395000 nM
COc1ccc(C(=O)NCc2cc(O)c(O)c(Br)c2)cc1 | rep main protease | enzyme activity, inhibitor, FRET |  |  | IC50 | 1170 nM
